Assay results gathered from unrelated publications.
A part holds a random share of what one study measured. Changes are numbered by the printed parent chain.

Block 1
Target: CCND2, cyclin fold, Cln2 fusion (human)
Technique: yeast growth competition, sequencing
Sample: yeast
Notes: weak parent motif
Baseline: not given
Reading: higher = stronger binding
Starting sequence: RBL2 docking peptide (human); STTRRRLFVENDS; partner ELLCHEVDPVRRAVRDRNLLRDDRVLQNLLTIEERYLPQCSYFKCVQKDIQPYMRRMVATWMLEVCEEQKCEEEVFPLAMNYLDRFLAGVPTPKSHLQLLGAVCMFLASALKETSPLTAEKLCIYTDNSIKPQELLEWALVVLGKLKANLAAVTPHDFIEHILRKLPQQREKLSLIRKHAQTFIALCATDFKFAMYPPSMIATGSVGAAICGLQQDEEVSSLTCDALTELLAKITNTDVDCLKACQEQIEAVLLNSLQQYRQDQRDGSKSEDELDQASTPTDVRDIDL
Variant	normalised enrichment score
R4S	-0.198
R4K	-0.354
T3F	0.308
L7D	0.441
S1Y	-0.00153
N11M	0.674
S1D	0.0651
S1Q	0.148
D12G	0.0643
R5A	0.0252
E10L	-0.117
R4I	0.0618
R5P	0.598

Block 2
Target: Interferon regulatory factor 3, full length, phosphomimetic (IRF3, Homo sapiens, UniProt Q14653, residues 1-427, S386D/S396D/S398D/S402D/T404D/S405D)
Chain of UniProt Q14653 (whole entry, unmodified, looked up): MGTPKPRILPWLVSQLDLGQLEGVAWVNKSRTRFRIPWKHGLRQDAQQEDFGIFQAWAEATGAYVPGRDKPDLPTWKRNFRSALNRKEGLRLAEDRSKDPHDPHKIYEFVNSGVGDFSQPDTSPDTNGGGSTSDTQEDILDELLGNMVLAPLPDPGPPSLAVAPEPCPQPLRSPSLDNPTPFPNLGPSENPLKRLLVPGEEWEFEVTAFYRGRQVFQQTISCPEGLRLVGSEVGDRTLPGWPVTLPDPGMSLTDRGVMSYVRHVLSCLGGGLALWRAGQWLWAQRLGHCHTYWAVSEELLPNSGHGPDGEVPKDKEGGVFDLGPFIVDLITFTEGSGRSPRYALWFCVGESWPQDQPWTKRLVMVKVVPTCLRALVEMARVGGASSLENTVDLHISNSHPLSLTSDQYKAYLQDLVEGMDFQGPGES
Technique: protein-binding microarray
Molecule type: double-stranded DNA, one strand shown
Sample: in vitro
Tested at: 2540 nM top
Notes: 60-bp whole probe
Together with: salmon DNA 0.4 mg/ml
Baseline: random background probes
Reading: higher = stronger binding
Constant ends, left off below: GCCTAGCAC … GTCTTGATTCGCTTGACGCTGCTG
Strand	fitted relative affinity
TCACTTTTCCCCCTAGTACTGTGCTAG	2.03 z-score
GAAGGTATCGGGACTGGGGACGTGCTA	1.04 z-score
CTTTAACTCATTCTCTGTTTGTGCTAG	1.73 z-score
GACGATATCGGGAATGGAGACGTGCTA	0.166 z-score
TTAGGTCTCGGCATCGGTTAGTGCTAG	-0.556 z-score
TTAGATTTCATACTGGATTAGTGCTAG	1.15 z-score
TTAGTTATCGGGACTGGGTTAGTGCTA	0.156 z-score
CTACGCCTGCAGGTGAGCCGGTGCTAG	-0.741 z-score
GACGATTTCGGGACAGGAGACGTGCTA	1.87 z-score
TCAGAAATTTCTTTCTAACTGTGCTAG	0.987 z-score
TCATCTTTCTGTCAGTTACTGTGCTAG	1.51 z-score
TCATTCCTGAAATCTCTTACTGTGCTA	0.849 z-score
GACGAACTGAGTATCGGGACGTGCTAG	0.379 z-score

Block 3
Target: ABI1, truncated, D143A, DHFR fusion (Arabidopsis thaliana, UniProt P49597)
Technique: DHFR PCA, dose-response
Sample: yeast
Notes: Hill fit, mean, not affinity
Together with: (+)-ABA, dose series
Reading: lower = more sensitive
Starting sequence: PYL1, truncated, DHFR fusion (Arabidopsis thaliana, UniProt Q8VZS8); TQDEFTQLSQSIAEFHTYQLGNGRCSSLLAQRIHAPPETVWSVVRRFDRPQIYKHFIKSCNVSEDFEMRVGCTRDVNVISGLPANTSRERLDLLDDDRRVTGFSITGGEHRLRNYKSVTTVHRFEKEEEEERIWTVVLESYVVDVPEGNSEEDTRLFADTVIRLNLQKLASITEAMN
Variant	ABA EC50 [µM]
I79Y	4.36
D97Q	1.63
A35R	178
L91V	517
E109K	7.9
T6P	2.92
F5L	2
P50C	92.1

Block 4
Target: Sal-like protein 4, full length isoform A (SALL4, Homo sapiens, UniProt Q9UJQ4, residues 1-1053)
Chain of UniProt Q9UJQ4 (whole entry, looked up): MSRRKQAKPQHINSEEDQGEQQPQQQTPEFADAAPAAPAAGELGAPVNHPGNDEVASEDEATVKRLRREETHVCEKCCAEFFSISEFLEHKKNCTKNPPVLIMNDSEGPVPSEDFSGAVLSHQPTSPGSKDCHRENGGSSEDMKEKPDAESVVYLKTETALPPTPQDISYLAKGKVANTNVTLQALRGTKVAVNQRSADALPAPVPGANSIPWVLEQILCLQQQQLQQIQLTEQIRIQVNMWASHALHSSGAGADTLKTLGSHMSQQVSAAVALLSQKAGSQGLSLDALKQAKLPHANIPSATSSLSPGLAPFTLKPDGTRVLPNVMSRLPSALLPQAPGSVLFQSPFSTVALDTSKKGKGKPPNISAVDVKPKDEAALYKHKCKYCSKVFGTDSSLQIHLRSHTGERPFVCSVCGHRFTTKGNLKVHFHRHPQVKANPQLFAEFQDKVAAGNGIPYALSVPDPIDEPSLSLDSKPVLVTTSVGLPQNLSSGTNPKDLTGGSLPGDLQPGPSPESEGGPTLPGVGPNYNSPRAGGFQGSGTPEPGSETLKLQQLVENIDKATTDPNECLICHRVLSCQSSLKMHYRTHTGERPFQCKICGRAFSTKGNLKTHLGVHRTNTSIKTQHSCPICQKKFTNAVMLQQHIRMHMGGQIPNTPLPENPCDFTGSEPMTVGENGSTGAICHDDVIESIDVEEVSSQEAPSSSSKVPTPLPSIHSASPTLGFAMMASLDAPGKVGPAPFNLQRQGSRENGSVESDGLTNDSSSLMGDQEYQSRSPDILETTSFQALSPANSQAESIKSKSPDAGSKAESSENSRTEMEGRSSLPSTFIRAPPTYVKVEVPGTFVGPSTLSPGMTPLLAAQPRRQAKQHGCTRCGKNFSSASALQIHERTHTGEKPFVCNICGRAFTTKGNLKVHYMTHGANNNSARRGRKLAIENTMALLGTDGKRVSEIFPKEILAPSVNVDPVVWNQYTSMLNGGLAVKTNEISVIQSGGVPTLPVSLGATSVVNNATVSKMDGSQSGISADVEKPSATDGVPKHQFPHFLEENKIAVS
Technique: universal PBM
Molecule type: double-stranded DNA, one strand shown
Sample: in vitro
Tested at: 600 nM
Notes: 8-mer, flanks averaged, mean of replicates
Reading: higher = stronger binding
Strand	E-score
AAATGGGT	0.128
CTAACTCA	0.0159
AACTTTAC	0.152
AGTCACGC	-0.176
CAACCTGC	-0.236
CGGGTCGC	-0.28
GGAGTTGA	0.0166
ATGACTCA	0.144
CATTCAGG	0.0175
AGTGGTTG	-0.0601

Excerpt of the above (block 4):
Strand	E-score
CTAACTCA	0.0159
AACTTTAC	0.152
AGTCACGC	-0.176
CAACCTGC	-0.236
